Assay results pooled from the literature.
Every numbered part comes from another study and shows a few of its results, in no order.
UniProt O75116, sequence (whole entry, looked up): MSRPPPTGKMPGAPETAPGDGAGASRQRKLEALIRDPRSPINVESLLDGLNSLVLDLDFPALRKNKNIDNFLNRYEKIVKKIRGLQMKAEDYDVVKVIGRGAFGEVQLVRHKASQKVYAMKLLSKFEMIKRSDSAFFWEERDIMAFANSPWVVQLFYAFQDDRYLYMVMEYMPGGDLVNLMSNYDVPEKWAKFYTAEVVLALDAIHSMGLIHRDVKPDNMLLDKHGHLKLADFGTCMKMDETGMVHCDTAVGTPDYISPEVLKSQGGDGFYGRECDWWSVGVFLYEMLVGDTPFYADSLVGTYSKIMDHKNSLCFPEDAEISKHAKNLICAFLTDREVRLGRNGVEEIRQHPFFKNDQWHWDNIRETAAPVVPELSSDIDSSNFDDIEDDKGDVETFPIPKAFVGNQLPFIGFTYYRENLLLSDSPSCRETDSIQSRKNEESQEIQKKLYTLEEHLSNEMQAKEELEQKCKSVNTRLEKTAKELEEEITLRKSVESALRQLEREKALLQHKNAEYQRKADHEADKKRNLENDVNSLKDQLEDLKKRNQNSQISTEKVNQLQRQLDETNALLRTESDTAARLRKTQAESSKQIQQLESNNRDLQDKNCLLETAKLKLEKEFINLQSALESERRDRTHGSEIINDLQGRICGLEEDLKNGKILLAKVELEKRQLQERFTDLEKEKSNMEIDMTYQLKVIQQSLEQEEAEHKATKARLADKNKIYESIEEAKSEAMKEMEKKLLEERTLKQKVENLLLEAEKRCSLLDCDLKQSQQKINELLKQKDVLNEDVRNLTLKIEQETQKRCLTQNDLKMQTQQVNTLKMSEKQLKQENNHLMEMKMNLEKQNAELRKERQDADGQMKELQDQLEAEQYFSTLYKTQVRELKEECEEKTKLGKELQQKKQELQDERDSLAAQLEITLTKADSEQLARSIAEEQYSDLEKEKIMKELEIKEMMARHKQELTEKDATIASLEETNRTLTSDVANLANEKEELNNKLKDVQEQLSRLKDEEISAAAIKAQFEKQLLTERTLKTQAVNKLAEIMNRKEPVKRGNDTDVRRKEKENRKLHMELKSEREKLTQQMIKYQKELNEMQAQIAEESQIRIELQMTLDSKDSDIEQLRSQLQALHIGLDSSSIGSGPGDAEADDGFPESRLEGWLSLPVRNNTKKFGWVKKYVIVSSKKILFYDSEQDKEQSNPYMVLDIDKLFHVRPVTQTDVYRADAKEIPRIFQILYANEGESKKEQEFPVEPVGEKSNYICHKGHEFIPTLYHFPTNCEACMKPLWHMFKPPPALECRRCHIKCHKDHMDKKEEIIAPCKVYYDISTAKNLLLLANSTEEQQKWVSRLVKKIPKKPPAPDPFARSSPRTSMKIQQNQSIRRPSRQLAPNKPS
UniProt P23458, sequence (whole entry, looked up): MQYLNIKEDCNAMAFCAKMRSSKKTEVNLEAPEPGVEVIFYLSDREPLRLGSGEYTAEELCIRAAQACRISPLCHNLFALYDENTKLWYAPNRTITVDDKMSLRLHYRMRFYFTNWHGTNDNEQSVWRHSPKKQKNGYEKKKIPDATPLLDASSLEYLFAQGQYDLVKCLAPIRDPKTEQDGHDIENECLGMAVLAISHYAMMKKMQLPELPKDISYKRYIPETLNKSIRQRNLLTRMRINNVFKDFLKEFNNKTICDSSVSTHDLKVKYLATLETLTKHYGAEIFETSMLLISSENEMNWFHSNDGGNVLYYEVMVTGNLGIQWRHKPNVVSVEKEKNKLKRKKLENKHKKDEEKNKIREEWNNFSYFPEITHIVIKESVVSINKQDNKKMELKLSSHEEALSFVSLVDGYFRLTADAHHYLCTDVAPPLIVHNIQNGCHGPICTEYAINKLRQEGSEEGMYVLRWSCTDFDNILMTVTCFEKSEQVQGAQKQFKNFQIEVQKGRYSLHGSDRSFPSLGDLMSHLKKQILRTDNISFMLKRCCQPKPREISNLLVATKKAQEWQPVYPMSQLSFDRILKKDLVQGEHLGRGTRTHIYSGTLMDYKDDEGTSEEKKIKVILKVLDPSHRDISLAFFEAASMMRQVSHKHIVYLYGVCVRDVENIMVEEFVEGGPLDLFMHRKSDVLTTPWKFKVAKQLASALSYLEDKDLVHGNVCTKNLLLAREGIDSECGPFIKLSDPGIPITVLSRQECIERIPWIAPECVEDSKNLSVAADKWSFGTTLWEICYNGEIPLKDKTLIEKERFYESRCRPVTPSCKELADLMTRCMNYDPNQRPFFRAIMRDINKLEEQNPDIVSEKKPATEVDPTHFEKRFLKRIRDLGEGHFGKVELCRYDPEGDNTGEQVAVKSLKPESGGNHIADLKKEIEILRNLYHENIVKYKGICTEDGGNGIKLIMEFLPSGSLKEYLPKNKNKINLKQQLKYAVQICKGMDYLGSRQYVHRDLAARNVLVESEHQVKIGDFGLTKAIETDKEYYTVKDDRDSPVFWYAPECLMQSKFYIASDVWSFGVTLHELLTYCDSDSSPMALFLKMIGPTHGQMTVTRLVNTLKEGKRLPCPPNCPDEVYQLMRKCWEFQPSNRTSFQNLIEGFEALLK
UniProt Q9NR20, sequence (whole entry, looked up): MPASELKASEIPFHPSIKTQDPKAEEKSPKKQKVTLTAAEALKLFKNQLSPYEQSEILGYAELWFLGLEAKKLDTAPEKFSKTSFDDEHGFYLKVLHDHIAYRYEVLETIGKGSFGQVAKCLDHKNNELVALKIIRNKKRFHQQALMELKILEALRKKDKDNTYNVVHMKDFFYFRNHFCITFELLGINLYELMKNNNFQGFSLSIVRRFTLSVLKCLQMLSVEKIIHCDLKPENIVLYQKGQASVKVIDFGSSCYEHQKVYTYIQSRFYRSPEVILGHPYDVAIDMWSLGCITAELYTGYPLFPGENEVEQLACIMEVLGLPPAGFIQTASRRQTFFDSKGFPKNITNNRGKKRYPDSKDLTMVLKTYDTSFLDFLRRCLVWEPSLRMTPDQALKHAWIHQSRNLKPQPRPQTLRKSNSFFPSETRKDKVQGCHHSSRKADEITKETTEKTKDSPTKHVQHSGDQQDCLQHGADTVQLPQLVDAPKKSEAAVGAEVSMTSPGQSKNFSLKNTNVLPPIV
UniProt P53779, sequence (whole entry, looked up): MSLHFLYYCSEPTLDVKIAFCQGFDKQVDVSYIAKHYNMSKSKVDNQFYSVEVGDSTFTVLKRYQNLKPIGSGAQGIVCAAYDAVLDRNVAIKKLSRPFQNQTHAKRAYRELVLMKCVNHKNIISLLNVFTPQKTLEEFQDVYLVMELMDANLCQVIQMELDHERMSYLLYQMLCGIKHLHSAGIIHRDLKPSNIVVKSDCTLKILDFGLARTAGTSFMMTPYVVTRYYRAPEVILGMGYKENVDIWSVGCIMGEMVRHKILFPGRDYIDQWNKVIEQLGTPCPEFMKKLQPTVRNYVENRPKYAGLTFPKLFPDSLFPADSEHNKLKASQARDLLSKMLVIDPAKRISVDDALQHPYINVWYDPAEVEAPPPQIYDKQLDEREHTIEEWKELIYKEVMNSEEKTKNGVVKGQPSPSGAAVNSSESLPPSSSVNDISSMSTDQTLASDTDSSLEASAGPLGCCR
UniProt P41279, sequence (whole entry, looked up): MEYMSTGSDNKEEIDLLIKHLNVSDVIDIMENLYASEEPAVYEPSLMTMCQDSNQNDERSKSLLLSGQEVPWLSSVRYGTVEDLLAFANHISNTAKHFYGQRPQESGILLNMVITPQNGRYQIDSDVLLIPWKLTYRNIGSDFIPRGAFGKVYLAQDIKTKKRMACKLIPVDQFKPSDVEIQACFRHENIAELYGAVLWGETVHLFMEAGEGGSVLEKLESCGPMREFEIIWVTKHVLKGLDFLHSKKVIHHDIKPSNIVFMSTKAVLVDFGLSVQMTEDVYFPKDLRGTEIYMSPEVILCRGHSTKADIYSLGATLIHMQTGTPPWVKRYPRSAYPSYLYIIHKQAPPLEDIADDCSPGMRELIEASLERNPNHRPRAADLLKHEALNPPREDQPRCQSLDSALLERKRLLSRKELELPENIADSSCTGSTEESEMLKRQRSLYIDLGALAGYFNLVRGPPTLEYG
UniProt Q16288, sequence (whole entry, looked up): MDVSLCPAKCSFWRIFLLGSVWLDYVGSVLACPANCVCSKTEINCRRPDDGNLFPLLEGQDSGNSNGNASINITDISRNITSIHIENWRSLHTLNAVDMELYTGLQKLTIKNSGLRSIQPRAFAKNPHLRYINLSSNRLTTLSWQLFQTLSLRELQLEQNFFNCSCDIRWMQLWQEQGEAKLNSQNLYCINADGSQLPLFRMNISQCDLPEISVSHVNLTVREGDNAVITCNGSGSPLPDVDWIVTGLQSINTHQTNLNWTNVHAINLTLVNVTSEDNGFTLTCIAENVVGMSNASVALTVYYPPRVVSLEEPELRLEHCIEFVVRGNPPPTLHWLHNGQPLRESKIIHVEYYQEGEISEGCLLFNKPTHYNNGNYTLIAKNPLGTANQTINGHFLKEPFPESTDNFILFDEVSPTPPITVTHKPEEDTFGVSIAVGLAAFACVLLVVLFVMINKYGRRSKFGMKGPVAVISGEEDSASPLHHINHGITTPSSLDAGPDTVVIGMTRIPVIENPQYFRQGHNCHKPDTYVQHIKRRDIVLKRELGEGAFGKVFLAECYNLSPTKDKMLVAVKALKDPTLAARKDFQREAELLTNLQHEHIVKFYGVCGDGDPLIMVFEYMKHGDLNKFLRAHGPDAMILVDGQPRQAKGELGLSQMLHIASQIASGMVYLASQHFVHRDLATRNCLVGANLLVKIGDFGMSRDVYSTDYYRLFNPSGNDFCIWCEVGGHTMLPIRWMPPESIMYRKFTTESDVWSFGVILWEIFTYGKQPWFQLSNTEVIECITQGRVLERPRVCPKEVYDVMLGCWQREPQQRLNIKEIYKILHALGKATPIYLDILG

Set 1 — read-out: enzyme activity; action: inhibitor; tested at: 0.5 µM; reference: control
Compound: C[S+]([O-])c1ccc(-c2nc(-c3ccncc3)c(-c3ccc(F)cc3)[nH]2)cc1 (centres unmarked)
| target | remaining activity [%] |
| --- | --- |
| RET (Homo sapiens, UniProt P07949) | 85.1 |
| PTK2B (Homo sapiens, UniProt Q14289) | 92.5 |
| MAP3K8 (Homo sapiens, UniProt P41279) | 92.1 |
| GRK5 (Homo sapiens, UniProt P34947) | 104 |
| Aurora kinase A (AURKA, Homo sapiens, UniProt O14965) | 99.5 |
| ROCK2 (Homo sapiens, UniProt O75116) | 98.4 |
| CAMK1G (Homo sapiens, UniProt Q96NX5) | 99.3 |
| CDK7 (Homo sapiens, UniProt P50613) | 96.8 |
| SLK (Homo sapiens, UniProt Q9H2G2) | 94.1 |
| Cyclin-dependent kinase 2, with cyclin A (CDK2, Homo sapiens, UniProt P24941) | 101 |
| DYRK4 (Homo sapiens, UniProt Q9NR20) | 99.2 |
| NTRK3 (Homo sapiens, UniProt Q16288) | 98 |
| BRSK1 (Homo sapiens, UniProt Q8TDC3) | 97.9 |
| MAPK10 (Homo sapiens, UniProt P53779) | 114 |
| MAP3K2 (Homo sapiens, UniProt Q9Y2U5) | 95.3 |
| CSNK2A2 (Homo sapiens, UniProt P19784) | 104 |
| DMPK (Homo sapiens, UniProt Q09013) | 103 |
| HIPK3 (Homo sapiens, UniProt Q9H422) | 103 |

Set 2 — read-out: cell-free assay; technique: competition with immobilised ligand; tested at: 0.1 µM
SMILES: CC(C)CC(=O)N1CCc2nc(-c3ccc(Br)cc3)nc(N(C)Cc3ccccc3)c2C1
| target | remaining binding |
| --- | --- |
| AKT1 (Homo sapiens, UniProt P31749) | 92% |
| MELK (Homo sapiens, UniProt Q14680) | 67% |
| EPHA8 (Homo sapiens, UniProt P29322) | 100% |
| MAP4K2 (Homo sapiens, UniProt Q12851) | 100% |
| CSNK1E (Homo sapiens, UniProt P49674) | 100% |
| Tyrosine-protein kinase ABL1, non-phosphorylated (ABL1, Homo sapiens, UniProt P00519, T315I) | 100% |
| CAMK2D (Homo sapiens, UniProt Q13557) | 100% |
| BRAF (Homo sapiens, UniProt P15056, V600E) | 100% |
| Tyrosine-protein kinase JAK1, JH2 (JAK1, Homo sapiens, UniProt P23458) | 71% |
| CASK (Homo sapiens, UniProt O14936) | 81% |

Set 3 — host: human; medium: microsomes or S9; tested at: 2 µM; time: 0.5 h
| Structure (SMILES) | remaining compound |
| --- | --- |
| Cc1c(C(=O)Nc2ccc3c(c2)NC(=O)C(C)O3)oc2ccc(F)cc12 (centres unmarked) | < 1% |
| COc1ccc(C2C(C(=O)N3CCN(c4cc(Cl)ccc4C)CC3)CCC(=O)N2c2cc(OC)c(OC)c(OC)c2)cc1 (centres unmarked) | 32.8% |
| COc1ccc(-c2oc3cc(OC)c(OC)c(OC)c3c(=O)c2OC)cc1OC | 27.8% |
| CNc1nc(CNc2nc(COC)nc3scc(-c4ccccc4)c23)cs1 | 3.9% |
| Cc1cc(C)n(-c2cccc(-c3cnc4n3CCOC4)c2)n1 | 46.2% |
| O=S(=O)(Cc1cc(Cl)cc(Cl)c1)N1CCN(c2nccs2)CC1 | > 99% |
| Cc1cc(CN2CCN(Cc3cc(C)c(O)c(C)c3)CC2)cc(C)c1O | 65.5% |
| CC(c1ncc(-c2ccc(O)cc2)s1)C(O)(Cn1cncn1)c1ccc(F)cc1F (centres unmarked) | 72.8% |
| Cc1c(CNCC(c2cccs2)N(C)C)cc(C#N)n1C (centres unmarked) | 62.9% |
| O=C(Nc1cc(Cl)ccc1Cl)c1c2c(nn1C1CCS(=O)(=O)C1)CCC2 (centres unmarked) | 69.4% |
| CCC(C)Nc1[nH]c2cc(C)cc(C)c2c(=O)c1C(C)=O (centres unmarked) | 1.24% |
| CCOc1cc(-c2ccccc2)nn1Cc1ccc2cccnc2c1 | 20.2% |
| O=C(Nc1ccc2c(c1)COC2=O)c1ccc(Cl)c(Cl)c1 | > 99% |
| COc1cc(=O)[nH]cc1C(=O)N1CCN(c2nc(C)cs2)C(C)C1 (centres unmarked) | 95.2% |
| Cc1ccc(NC(=O)N2Cc3c(sc4c3CCCC4)-n3cccc3C2C)cc1Cl (centres unmarked) | 14.8% |

Mixed results
| SMILES | test system | setting | measurement | result |
| --- | --- | --- | --- | --- |
| CC(C)n1cnc(-c2ccc(F)cc2)c1-c1ncc(C(=O)Nc2ccc(N3CCN(C)CC3)cc2)[nH]1 | IPF patients | 60 mg once daily, adverse event | CRP increased incidence | 0% |

For quick reference, copied from above (set 1):
| target | remaining activity [%] |
| --- | --- |
| Aurora kinase A (AURKA, Homo sapiens, UniProt O14965) | 99.5 |
| ROCK2 (Homo sapiens, UniProt O75116) | 98.4 |
| CAMK1G (Homo sapiens, UniProt Q96NX5) | 99.3 |
| CDK7 (Homo sapiens, UniProt P50613) | 96.8 |
| SLK (Homo sapiens, UniProt Q9H2G2) | 94.1 |
| Cyclin-dependent kinase 2, with cyclin A (CDK2, Homo sapiens, UniProt P24941) | 101 |
